Assay results pooled from the literature.
Protocols differ between the studies behind these lines. “And” joins repeats or separate records; there may be more than shown. ± gives the spread as reported.
HTR1D: 5-hydroxytryptamine receptor 1D (HTR1D, Homo sapiens, UniProt P28221)
BRD7: Bromodomain-containing protein 7 (BRD7, Homo sapiens, UniProt Q9NPI1)
Cgas: Cyclic GMP-AMP synthase (Cgas, Mus musculus, UniProt Q8C6L5)

CC1=NN(c2ccccc2)C(=O)C1=NNc1ccc(S(N)(=O)=O)cc1 — inhibition (bovine α-glucosidase; enzyme activity, inhibitor, glucose oxidase; 50 µg/mL, with: maltose): 36.7%
Cc1nc(Nc2ncc(C(=O)Nc3c(C)cccc3Cl)s2)cc(N2CC[C@H](O)C2)n1 — inhibition (SRC (Homo sapiens, UniProt P12931); 0.001 µM): 97%
Cc1ccc(C(=O)Nc2ccc3ccccc3c2)o1 — inhibition (SCN9A (Homo sapiens, UniProt Q15858); ion current, inhibitor, whole-cell patch clamp; 10 µM): 0.8% and 6.47% and 2.1% and 3.2% and 8.32%
O=C(Nc1cccc2c(=O)cc(-c3nnn[nH]3)oc12)c1ccc(OCCCCc2ccccc2)cc1 — inhibition (LRRC8A/LRRC8C (Homo sapiens, UniProt Q8IWT6+Q8TDW0, Y124F/Y126F); ion current, whole-cell patch clamp; HCT LRRC8-/- cells; 10 µM, -100 mV, Y124F/Y126F heteromers): 70.5% and 13.9% and 6.41% and 1.54% and -5.84% and 19.5%
CC[C@]12CCCN3CCc4c([nH]c5ccccc45)[C@]31N(Cc1cn(Cc3ccccc3)nn1)C(=O)C2 — inhibition (HCRTR2 (Homo sapiens, UniProt O43614); beta-arrestin recruitment, antagonist, PathHunter chemiluminescence; 20 µM, with: agonist at EC80): 80%
O=c1c(O)cc([C@H]2Oc3cc(O)cc(O)c3C[C@H]2O)cc2c([C@H]3Oc4cc(O)cc(O)c4C[C@H]3O)cc(O)c(O)c12 — inhibition (alpha-amylase; enzyme activity, inhibitor, DNS method; 10 µg/mL, with: soluble starch): 7.02%
CCN1/C(=C/C(C)=O)Sc2ccc(F)cc21 — inhibition (NTSR1 (Homo sapiens, UniProt P30989); 10 µM): 0.4%
Cc1ccc(OC[C@@H]2CN(CCN3CCc4ccccc43)CCO2)cn1 — inhibition (HTR1D; radioligand binding; concentration not given, with: [3H]5-CT): 37.1%
O=C(/C=C/c1cccnc1)NCCCCC1CCN(C(=O)c2ccccc2)CC1 — inhibition (NMNAT1 human; enzyme activity, coupled alcohol dehydrogenase counter-screen; concentration not given, with: 50 µM NMN): no inhibition
COc1cc(-c2cc(C(C)=O)n3ccccc23)c(OC)cc1Cn1ccnc1 — inhibition (BRD7; 1 µM): 92.3%
CC(=O)c1ccc(-c2cccc(NC(=O)CCc3cccc4c3B(O)OC4)c2)cc1 — inhibition (Cleavage and polyadenylation specificity factor subunit 3 (Cpsf3, Mus musculus, UniProt Q9QXK7); pre-mRNA cleavage; mouse nuclear extract; 200 µM): 96%
COc1ccc2c(c1)CN(CCCN1CCN(c3ccccc3OC)CC1)C2=O — inhibition (HTR1D; radioligand binding; concentration not given, with: [3H]5-CT): 79%
CCCC[C@H](NC(=O)[C@H](C)c1c(C)[nH]c2ccc(O)cc12)c1ncc(-c2cc3ccccc3nc2OC)[nH]1 — inhibition (OPRM1 (Homo sapiens, UniProt P35372); 10 µM): 66%
Cc1cc2c(cc1N1C(=O)c3cccc4c(CCCO)ccc(c34)C1=O)n(C)c(=O)n2C (racemic) — inhibition (BRD7; binding, BROMOscan binding; 1000 nM): 18%
Cc1nn(-c2nc3ccc(Cl)c(Cl)c3[nH]2)c(O)c1C1OC(=O)c2ccccc21 (stereo not shown) — inhibition (Cgas; enzyme activity, inhibitor, pyrophosphatase-coupled; 0.5 µM, 1.5 h, mouse enzyme): 77.2%
NC/C(=C\F)COc1cccc(Cn2c(=S)[nH]c(=O)c3[nH]cnc32)c1 — inhibition (Amine oxidase [copper-containing] 3 (Rattus norvegicus, UniProt O08590); rat adipose tissue; 0.0041 µM): 37%
CC1=NN(c2cccc(C)c2)C(=O)C1=NNc1ccc(S(N)(=O)=O)cc1 — inhibition (bovine α-glucosidase; enzyme activity, inhibitor, glucose oxidase; 500 µg/mL, with: maltose): 44.2%
Cc1nc(Nc2ncc(C(=O)Nc3c(C)cccc3Cl)s2)cc(N2CCN(CCO)CC2)n1 — inhibition (ERBB2 (Homo sapiens, UniProt P04626); kinase activity, inhibitor, Kinase-Glo MAX; 1 µM): 77.3%
c1ccc(OC[C@@H]2CN(CCN3CCc4ccccc43)CCO2)cc1 — inhibition (HTR1D; radioligand binding; concentration not given, with: [3H]5-CT): 76.8%
CC1=NN(c2ccc(F)cc2)C(=O)C1=NNc1ccc(S(N)(=O)=O)cc1 — inhibition (bovine α-glucosidase; enzyme activity, inhibitor, glucose oxidase; 500 µg/mL, with: maltose): 42.4%
O=C(NO)c1ccc(CN2CCCCc3ccccc32)c(F)c1 — inhibition (SLC6A3 (Homo sapiens, UniProt Q01959); radioligand binding, radioligand displacement; 10 µM, mean of replicates): -51.3%
CCS(=O)(=O)c1nc(S(=O)(=O)c2ccccc2Cl)c(N2CCN(C)C(=O)[C@H]2C)s1 — inhibition (HTR1D; 10 µM): 31.5%
C[C@H](NC(=O)Cc1cc(F)cc(F)c1)C(=O)N[C@H](C(=O)OC(C)(C)C)c1ccccc1 — inhibition (Presenilin-1, in γ-secretase complex (PSEN1, Homo sapiens, UniProt P49768); N1-Sb1 substrate cleavage, inhibitor, AlphaLISA; cells; concentration not given): 94%
Cc1ncccc1OC[C@@H]1CN(CCN2CCc3ccccc32)CCO1 — inhibition (HTR1D; radioligand binding; concentration not given, with: [3H]5-CT): 33.2%
CC1=NN(c2cccc([N+](=O)[O-])c2)C(=O)C1=NNc1ccc(S(N)(=O)=O)cc1 — inhibition (bovine α-glucosidase; enzyme activity, inhibitor, glucose oxidase; 500 µg/mL, with: maltose): 54%
O=C1c2ccccc2CCN1CCCCN1CCN(c2cccc(Cl)c2Cl)CC1 — inhibition (HTR1D; radioligand binding; concentration not given, with: [3H]5-CT): 96.9%
CC1=NNC(=O)C1=NNc1ccc(S(N)(=O)=O)cc1 — inhibition (bovine α-glucosidase; enzyme activity, inhibitor, glucose oxidase; 500 µg/mL, with: maltose): 39%
Cc1c(-c2ccccc2)oc2c(C(=O)OCCN3CCCCC3)cccc2c1=O — inhibition (LRRC8A (Homo sapiens, UniProt Q8IWT6); endogenous hypotonicity-induced current; HEK293; 30 µM): 78.3 ± 2%
CC1=NNC(=S)NC(=O)C1/N=N/c1ccc(S(N)(=O)=O)cc1 (stereo not shown) — inhibition (bovine α-glucosidase; enzyme activity, inhibitor, glucose oxidase; 50 µg/mL, with: maltose): 30%
CN1CCN(c2cc(-c3ccncc3)c(-c3ccc4ccccc4c3)nn2)CC1 — inhibition (GLP2R (Homo sapiens, UniProt O95838); antagonist, FLIPR; 10 µM): 54.2%
CC1=NN(c2ccc(Cl)cc2)C(=O)C1=NNc1ccc(S(N)(=O)=O)cc1 — inhibition (bovine α-glucosidase; enzyme activity, inhibitor, glucose oxidase; 200 µg/mL, with: maltose): 42.1%
COc1cc(C2=CCCc3c2ccc(OC)c3OC(C)c2cnc([N+](=O)[O-])n2C)cc(OC)c1OC (stereo not shown) — inhibition (tubulin; colchicine binding; 5 µM, with: 5.0 µM [3H]colchicine): 4.8 ± 2%
CC1=NN(c2ccc(C)cc2)C(=O)C1=NNc1ccc(S(N)(=O)=O)cc1 — inhibition (bovine α-glucosidase; enzyme activity, inhibitor, glucose oxidase; 200 µg/mL, with: maltose): 38.5%
Cc1nn(-c2nc3c(F)cc(F)cc3s2)c(O)c1C(c1ccc(C(F)(F)F)cc1)c1c(C)nn(-c2nc3c(F)cc(F)cc3s2)c1O — inhibition (Cgas; enzyme activity, inhibitor, pyrophosphatase-coupled; 25 µM, 1.5 h, mouse enzyme): 95.9%

For quick reference, copied from above:
Cc1cc2c(cc1N1C(=O)c3cccc4c(CCCO)ccc(c34)C1=O)n(C)c(=O)n2C (racemic) — inhibition (BRD7; binding, BROMOscan binding; 1000 nM): 18%
Cc1nn(-c2nc3ccc(Cl)c(Cl)c3[nH]2)c(O)c1C1OC(=O)c2ccccc21 (stereo not shown) — inhibition (Cgas; enzyme activity, inhibitor, pyrophosphatase-coupled; 0.5 µM, 1.5 h, mouse enzyme): 77.2%
NC/C(=C\F)COc1cccc(Cn2c(=S)[nH]c(=O)c3[nH]cnc32)c1 — inhibition (Amine oxidase [copper-containing] 3 (Rattus norvegicus, UniProt O08590); rat adipose tissue; 0.0041 µM): 37%
CC1=NN(c2cccc(C)c2)C(=O)C1=NNc1ccc(S(N)(=O)=O)cc1 — inhibition (bovine α-glucosidase; enzyme activity, inhibitor, glucose oxidase; 500 µg/mL, with: maltose): 44.2%
Cc1nc(Nc2ncc(C(=O)Nc3c(C)cccc3Cl)s2)cc(N2CCN(CCO)CC2)n1 — inhibition (ERBB2 (Homo sapiens, UniProt P04626); kinase activity, inhibitor, Kinase-Glo MAX; 1 µM): 77.3%
c1ccc(OC[C@@H]2CN(CCN3CCc4ccccc43)CCO2)cc1 — inhibition (HTR1D; radioligand binding; concentration not given, with: [3H]5-CT): 76.8%
